Assay results from different studies.
Numbers after ± are the reported error.

The IC50 of `CC1(C)CCCC(C)(C2CCC3(C)C2C(O)CC2C4(C)CCC(O)C(C)(C)C4C(OC(=O)NCc4ccccc4)CC23C)O1` (stereo not shown) is reported as > 30 µM (Hep3B; cell growth or viability, MTT; 24 h).
`Nc1ncnc2c1c(Cl)cn2[C@@H]1O[C@H](CO)C[C@H]1O` has an EC50 of 9.9 ± 1.5 µM (MRC-5 SV2; cytotoxicity, resazurin; medium with 5% FBS; 72 h).
`CCCCCc1ccc(S(=O)(=O)N2CC2C(=O)N(C)C)cc1` (stereo not shown) gave an IC50 of 13 ± 2 µM (Balb/c 3T3 fibroblasts; cytotoxicity, neutral red uptake; DMEM with 5% FBS; 24 h).
Under “compound fluorescence-only positive cells”, `CCCN(CC(=O)N(CCC)CC(=O)N(CCC)CC(=O)N(CCC)CC(=O)N(CC(=O)N(CCC)CC(=O)N(CCC)CC(=O)N(CCC)CC(=O)N(CCC)CC(=O)N(CC(N)=O)Cc1cn(CCCNC(=O)CCCOc2cccc(-c3nc4ccc(-c5nc6ccc(N7CCN(C)CC7)cc6[nH]5)cc4[nH]3)c2)nn1)Cc1cn(CCCNC(=O)CCCOc2cccc(-c3nc4ccc(-c5nc6ccc(N7CCN(C)CC7)cc6[nH]5)cc4[nH]3)c2)nn1)C(=O)CNCc1cn(CCCNC(=O)CCCOc2cccc(-c3nc4ccc(-c5nc6ccc(N7CCN(C)CC7)cc6[nH]5)cc4[nH]3)c2)nn1` is recorded as 44% (C2C12; flow cytometry; 5 µM, 14 h).
The IC50 of `COC(=O)C1CN1S(=O)(=O)c1ccc2cc(N(C)C)ccc2c1` (stereo not shown) is reported as 38 ± 2 µM (Balb/c 3T3 fibroblasts; cytotoxicity, neutral red uptake; DMEM with 5% FBS; 24 h).
`CC1(C)CCN(Cc2ccc(C(=O)NC[C@]3(O)CCCN(c4cc(NCc5ccccc5)ncn4)C3)c(O)c2)CC1` gave a Papp of 28.8 ×10⁻⁶ cm/s (Caco-2; 10 µM, 90 min, basolateral to apical).
`CC(C)=CCc1cc(-c2coc3cc(O)c(CC=C(C)C)c(O)c3c2=O)ccc1O` has a viability of 5.55% (RAW264.7; cell growth or viability, MTT; 100 µg/mL, 24 h).
`O=C(Nc1cc2nc(-c3ccc(F)c(F)c3)cn2cn1)N1CC[C@H](F)C1`: cytotoxicity “not toxic” (MRC-5 SV2; concentration not given).
For `CC1(C)CCCC(C)(C2CCC3(C)C2C(O)CC2C4(C)CCC(OC(=O)NC5CCCCC5)C(C)(C)C4C(O)CC23C)O1` (stereo not shown), the IC50 was > 30 µM (Hep3B; cell growth or viability, MTT; 24 h).
With `CC(=O)N[C@H](C(=O)N[C@H](C(=O)N[C@@H](CCCNC(=N)N)C(=O)N1Cc2ccccc2C[C@H]1C(=O)N[C@@H](Cc1ccccc1)C(N)=O)C1CCCCC1)C(C)C` the cytokine level was < 0.5 pg/mL (human PBMC; Bio-Plex multiplex, item: IL-15; 250 µg/mL, 24 h).
For `CC(C)CCCCC(=O)N[C@@H](CCN)C(=O)N[C@H](C(=O)N[C@@H](CCN)C(=O)N[C@H]1CCNC(=O)[C@H]([C@@H](C)O)NC(=O)[C@H](CCN)NC(=O)[C@H](CCN)NC(=O)[C@H](CC(C)C)NC(=O)[C@@H](Cc2ccccc2)NC(=O)[C@H](CCN)NC1=O)[C@@H](C)O`, “minimum haemolytic concentration” read > 2000 µg/mL (human red blood cells; haemolysis; 4 h, pH 7.4, 25 °C).
`CCCN(CC(=O)N(CCC)CC(=O)N(CCC)CC(=O)N(CCC)CC(=O)N(CC(=O)N(CCC)CC(=O)N(CCC)CC(=O)N(CCC)CC(=O)N(CCC)CC(=O)N(CC(=O)N(CCC)CC(=O)N(CCC)CC(=O)N(CCC)CC(=O)N(CCC)CC(=O)N(CC(N)=O)Cc1cn(CCCNC(=O)CCCOc2cccc(-c3nc4ccc(-c5nc6ccc(N7CCN(C)CC7)cc6[nH]5)cc4[nH]3)c2)nn1)Cc1cn(CCCNC(=O)CCCOc2cccc(-c3nc4ccc(-c5nc6ccc(N7CCN(C)CC7)cc6[nH]5)cc4[nH]3)c2)nn1)Cc1cn(CCCNC(=O)CCCOc2cccc(-c3nc4ccc(-c5nc6ccc(N7CCN(C)CC7)cc6[nH]5)cc4[nH]3)c2)nn1)C(=O)CNCc1cn(CCCNC(=O)CCCOc2cccc(-c3nc4ccc(-c5nc6ccc(N7CCN(C)CC7)cc6[nH]5)cc4[nH]3)c2)nn1` — result for “compound fluorescence-only positive cells”: 69% (C2C12; flow cytometry; 5 µM, 14 h).
`CCCCCCCCCCCC(=O)O[C@@H](C(=O)O[C@H]1C[C@@]2(O)[C@@H](OC(=O)c3ccccc3)[C@@H]3[C@]4(OC(C)=O)CO[C@@H]4C[C@H](O)[C@@]3(C)C(=O)[C@H](O)C(=C1C)C2(C)C)[C@@H](NC(=O)OC(C)(C)C)c1ccccc1`: “potency relative to docetaxel” 20.6 fold (DU-145; MTT; 48 h; relative to: docetaxel, higher = less active).

For quick reference, copied from above:
`CCCCCCCCCCCC(=O)O[C@@H](C(=O)O[C@H]1C[C@@]2(O)[C@@H](OC(=O)c3ccccc3)[C@@H]3[C@]4(OC(C)=O)CO[C@@H]4C[C@H](O)[C@@]3(C)C(=O)[C@H](O)C(=C1C)C2(C)C)[C@@H](NC(=O)OC(C)(C)C)c1ccccc1`: “potency relative to docetaxel” 20.6 fold (DU-145; MTT; 48 h; relative to: docetaxel, higher = less active).
